Published values pooled from the literature.
Protocols differ between the studies behind these lines. Several values in a cell are separate wells, animals, samples, runs or records. Numbers after ± are the reported error.
IDE: Insulin-degrading enzyme (IDE, Homo sapiens, UniProt P14735)
Chain of UniProt P08684 (whole entry, looked up): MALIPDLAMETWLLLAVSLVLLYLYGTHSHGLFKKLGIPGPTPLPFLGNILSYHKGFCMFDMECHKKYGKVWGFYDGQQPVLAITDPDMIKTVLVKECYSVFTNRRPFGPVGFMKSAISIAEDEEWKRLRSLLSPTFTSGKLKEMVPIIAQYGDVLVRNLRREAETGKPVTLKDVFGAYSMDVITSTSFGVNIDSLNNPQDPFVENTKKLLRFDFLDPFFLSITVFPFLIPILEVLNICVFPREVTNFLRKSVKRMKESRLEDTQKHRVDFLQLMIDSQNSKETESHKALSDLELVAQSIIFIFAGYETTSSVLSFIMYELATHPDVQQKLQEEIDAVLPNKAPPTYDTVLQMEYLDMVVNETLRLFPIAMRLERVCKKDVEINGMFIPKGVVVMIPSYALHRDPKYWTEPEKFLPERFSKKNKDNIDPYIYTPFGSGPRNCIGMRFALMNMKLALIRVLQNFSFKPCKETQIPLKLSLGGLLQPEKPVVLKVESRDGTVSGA

Compound | target or system | assay | system | setting | how to read | quantity | value
CCS(=N)c1ccc(C(F)(F)F)cc1 (stereo not drawn) |  |  | human liver microsomes |  | reference: hepatic blood flow | metabolic stability | < 23%
COc1ccnc(C(=O)N[C@@H](CO)C(=O)O)c1OCOC(=O)C(C)C |  |  | Swiss Lake sand sediment, aerobic dark | 20 °C |  | DT50 whole system | 1.2 days
CN1C[C@H](COc2nccc3c(NCc4ccco4)cc(Cl)nc23)OC1=O |  |  | rabbit NZW female, isolated Langendorff heart | 10 µM, 15 min |  | left ventricular peak systolic pressure | 100 mmHg
COc1cc(N2CCC(N3CCN(C)CC3)CC2)ccc1Nc1ncc(Cl)c(Nc2ccccc2P(C)(C)=O)n1 |  |  | nude mice, NCI-H3122 xenograft | intraperitoneal, 10 mg/kg every other day, day 13 |  | body weight | 22.1 g and 23.8 g and 24.8 g and 23.6 g and 25 g
O=C(N[C@@H](CSCc1ccc([N+](=O)[O-])cc1)C(=O)NO)c1ccccc1 |  |  | male ICR mice | oral, 200 mg/kg, 28 days, OECD 407 subacute toxicity |  | serum malondialdehyde | no effect
Cc1ccc2nc(-c3ccccc3)c(CNc3cccc(C(F)(F)F)c3)n2c1 |  |  | peritoneal macrophages, Swiss mice | 5 days, 5% fetal calf serum |  | CC50 | > 63.1 µM
C[C@H]1CN(C(=O)CC#N)[C@]12CCN(c1ncnc3[nH]ccc13)C2 |  |  | healthy human | oral, 3 mg single |  | subjects with Vomiting | 0%
C[C@@H]1OC(=O)[C@H](Cc2ccccc2)[C@H]1O |  |  | Staffordshire loam sediment, aerobic dark | 20 °C |  | DT50 water | 13 days
C=CCN1CC(=O)N2[C@@H](Cc3ccc(O)cc3F)C(=O)N(Cc3cccc(N4CC(N5CCN(CC)CC5)C4)n3)C[C@@H]2N1C(=O)NCc1ccccc1 |  |  | advanced solid tumour patients | oral, 15 mg twice daily, grade ≥3, dose-escalation |  | any treatment-related adverse event | 0%
N#Cc1ccc2c(c1)[C@H]1CCCN(C(=O)c3ccc4[nH]cnc4c3)[C@H]1C2 |  |  | human | 10 mg, day 7 | reference: baseline | ACTH level change | 1.1 pmol/L
COc1ccc([C@@H](O)c2cc(-c3ncnc4cc(N5CCOCC5)ccc34)c(F)cc2Cl)nn1 |  |  | locally advanced rectal cancer patients | 50 mg, with: capecitabine and radiotherapy |  | nausea TEAE incidence | 100%
CNCc1ccc(-c2[nH]c3cc(F)cc4c3c2CCNC4=O)cc1 |  |  | human patients | oral, 240 mg twice daily, all grades |  | headache incidence | 0%
O=C(N[C@H](Cc1c[nH]c2ccccc12)C(=O)Nc1ccncc1)c1ccc(-c2cc(C(F)(F)F)ccc2F)cc1F |  |  | Swiss Webster mouse, female, lung | oral, 50 mg/kg, 2 h, 20% HPβCD vehicle |  | concentration | 13.8 µM
N#C[C@@]1(c2ccc3c(N)ncnn23)O[C@H](CO)[C@@H](O)[C@H]1O |  | plasma protein binding | rat plasma | 1 µM, time not given |  | recovery | 96.7%
CNC(=O)c1cc(Oc2ccc(NC(=O)Nc3cc(C(C)(C)C)nn3-c3ccc4ncccc4c3)c(F)c2)ccn1 |  | measured: worst grade 1 | human | oral, dose not given, cycles 1 and 2, Low Cmax subgroup |  | patients with nervous system disorder AE | 12%
COc1cc(N2CCC(N3CCN(C)CC3)CC2)ccc1Nc1ncc(Cl)c(Nc2ccccc2S(=O)(=O)C(C)C)n1 |  |  | CD1 nude mouse | oral, 20 days |  | MTD | 10 mg/kg
Cc1ccccc1-c1ccc([C@H]2[C@@H](CO)N3CCCCN(C(=O)c4cccnc4)C[C@H]23)cc1 | IDE | enzyme activity, inhibitor, fluorogenic kinetic |  | with: Mca-RPPGFSAFK(Dnp)-OH substrate |  | EC50 | 3.1 µM
O=C(OC(C(F)(F)F)C(F)(F)F)N1CCN(Cc2cccc(Oc3ccccc3)c2)CC1 |  | PET blocking study | rhesus monkey, brain FCX | 0.3 mg/kg, compound pretreatment, with: [18F]T-401 tracer |  | k2 | 0.126 min⁻¹
COc1cccc2c(NN=Cc3cccc(F)c3)ccnc12 | Plasmodium yoelii |  | 17XL | 384-well |  | IC50 | > 20 µM
C=CC(=O)N(C)CCOc1c(N)ncnc1-c1cc(F)cc(NC(=O)c2ccc(C3CC3)cc2F)c1C |  |  | human, whole blood | oral, 400 mg single dose |  | AUC | 1.06 µg·h/mL
O=C(Nc1nc2cccc(-c3ccc(CN4CCS(=O)(=O)CC4)cc3)n2n1)C1CC1 |  | measured: headache | human rheumatoid arthritis patients | oral, 200 mg once daily, 4 weeks, regardless of relatedness |  | treatment-emergent adverse events | 25%
CC[C@H](C)CCCCC(=O)N[C@@H](CCN)C(=O)N[C@H](C(=O)N[C@@H](CCN)C(=O)N[C@H]1CCNC(=O)[C@H]([C@@H](C)O)NC(=O)[C@H](CCN)NC(=O)[C@H](CCN)NC(=O)[C@H](CC(C)C)NC(=O)[C@@H](Cc2ccccc2)NC(=O)[C@H](CCN)NC1=O)[C@@H](C)O |  |  | mild renal insufficiency patients | IV, 0.75 mg/kg, arithmetic mean |  | nonrenal clearance | 2.07 L/h
CC(C)(C(=O)N1CCOc2c(C#N)cncc2C1)C(F)F |  | measured: vascular disorders | healthy humans, both sexes | oral, 10 mg single dose |  | subjects with TEAE | 0%
COc1cccc(OC)c1-c1cc(C(=O)NC2(C(=O)O)C3CC4CC(C3)CC2C4)nn1-c1ccc(C(=O)N(C)CCCN(C)CCCN(C)C(=O)CN2CCN(CC(=O)[O-])CCN(CC(=O)[O-])CCN(CC(=O)[O-])CC2)cc1C(C)C.[177Lu+3] (stereo not drawn) |  |  | mouse, HT-29 xenograft, HT-29 tumour | 24 h post injection |  | tissue uptake | 14 %ID/g

Compound | target or system | assay | system | setting | how to read | quantity | value
N[C@@H](CC(=O)O)C(=O)OC(C(=O)O)c1ccccc1[N+](=O)[O-].O=C(O)C(F)(F)F (mixture of isomers) |  | 1H NMR, dark | 50 mM sodium phosphate | concentration not given, pH 5.8, room temperature, 12.5% DMSO-d6 |  | hydrolysis half-life, A isomer | 13 ± 1 h
Cc1nc(-c2cnc(NC(C)C)n(C)c2=O)ccc1Oc1ccnc(-c2cnn(C)c2)c1 |  |  | DBA/1 mouse, female, plasma | oral, 7.5 mg/kg, single dose |  | apparent volume of distribution | 1.88 L/kg
C=CC(=O)Nc1cc(Nc2nccc(-c3cn(C)c4ccccc34)n2)c(OC)cc1N(C)CCN(C)C |  | population PK model | human patients |  |  | apparent clearance (CL/F) | 14.3 L/h
Cc1cccc(CNC(=O)c2cn(CCNC(=O)c3ccccc3Sc3c([N+](=O)[O-])ncn3C)c3cc4c(cc3c2=O)OC(F)(F)O4)n1 |  |  | Sprague-Dawley rat, male, whole blood | intramuscular, 10 mg/kg of parent drug |  | bioavailability | 34%
Cc1cc(NC2CCN(C(=O)OC3CCN(C(=O)/C=C/CN(C)C)C3)CC2)n2ncc(C(C)C)c2n1 (stereo not drawn) |  | Phase I dose escalation CTCAE v4.0, measured: abdominal pain | patients with advanced solid tumours | dose not given, QD dosing grade 3 or higher |  | patients with adverse event | 0%
C[C@@H](Nc1cc(F)cc(F)c1)c1cc(C(=O)N(C)C)cc2c(=O)cc(N3CCOCC3)oc12 |  | measured: Dehydration | advanced solid tumour patients | oral, dose not given, dose expansion |  | related serious adverse events | 5%
Cc1ccc([C@@H]2O[C@H](CO)[C@@H](O)[C@H](O)[C@H]2O)cc1Cc1ccc(-c2ccc(F)cc2)s1 |  |  | Japanese type 2 diabetes patients | 100 mg, day 18, 24 h urine collection | reference: baseline | urinary chloride excretion change | -52.7 mEq
CCc1cc(C(=O)NC)c2nccc(N3CCc4c(cc(Cn5ccnc5)cc4-c4cn(C)nc4C(F)(F)F)C3=O)c2c1 |  |  | Sprague Dawley rat | oral, 50 mg/kg once daily, day 3, 7-day toxicology study | reference: day 1 | body weight change | 6.9%
O=C(O)CCCOc1ccc([18F])cc1-c1cc(-c2ccccc2C(F)(F)F)n(-c2ccccc2)n1 |  | gamma counting | male ddY mice, heart | intravenous, 2.1 MBq, 30 min |  | radioactivity uptake | 10.2 ± 2.73 SUV
OB1NN=Cc2ccccc21 |  | stability, UPLC-MS | diluted serum | 6 day, 37 °C | higher = more compound remaining | peak area | 314000 a.u. and 299000 a.u. and 316000 a.u.
COc1cccc(-c2n[nH]c(SCc3ccccn3)n2)c1OC |  |  | Sprague-Dawley rats, both sexes | oral dietary, 10 mg/kg/day, day 7, 24 h |  | plasma concentration | 0.142 µg/mL
Cc1c(-c2ccc(N3CCc4cccc(C(=O)Nc5nc6ccccc6s5)c4C3)nc2C(=O)O)cnn1CC12CC3(C)CC(C)(C1)CC(OCCNCC[C@H](O)CO)(C3)C2 |  |  | beagle dog, anaesthetised | intravenous infusion, 0.1 mg/kg/min, 45 min | reference: baseline | mean arterial pressure change | 0 mmHg
Cc1cc(C)c(CNC(=O)c2cc(Cl)c3c(c2C)O[C@@](C)([C@H]2CC[C@H](N(C)C)CC2)O3)c(=O)[nH]1 |  |  | human, plasma | oral, 200 mg, cycle 1 day 1 |  | half-life total drug | 9.46 h
Cc1ccc(C(=O)N(CCCN)C(c2nc3snc(C)c3c(=O)n2Cc2ccccc2)C(C)C)cc1 (stereo not drawn) |  |  | human patients | intravenous, 4 mg/day |  | grade ≥3 hyperbilirubinemia patients | 0%
CCCCCN(C)CCC(O)(P(=O)(O)O)P(=O)(O)OP(=O)(O)OC[C@H]1O[C@@H](n2ccc(N)nc2=O)C(F)(F)[C@@H]1O (stereo partly drawn) |  |  | aqueous buffer | concentration not given, pH 2.7, 22 °C, with: 2.7 mM TFA |  | hydrolysis rate | 0.025 h⁻¹
NC1(C(=O)N[C@@H](CCO)c2ccc(Cl)cc2)CCN(c2nc[nH]c3nccc2-3)CC1 |  |  | metastatic CRPC patients | 480 mg b.i.d., any grade, treatment-related, with: enzalutamide 160 mg daily |  | incidence of Stomatitis | 20%
CN[C@@H](C)C(=O)N[C@H]1CN(S(=O)(=O)c2cccc(S(=O)(=O)N3CC[C@H]4CC[C@@H](C(=O)NC(c5ccccc5)c5ccccc5)N4C(=O)[C@@H](NC(=O)[C@H](C)NC)C3)c2)CC[C@H]2CC[C@@H](C(=O)NC(c3ccccc3)c3ccccc3)N2C1=O |  | LC-MS/MS, noncompartmental | human, plasma | 45 mg, cycle 1 day 1 |  | Vss | 38.3 ± 16.1 L
CSc1ccccc1C(=O)NCCn1cc(C(=O)NCc2cccc(C)n2)c(=O)c2cc3c(cc21)OC(F)(F)O3 |  |  | Sprague-Dawley rat, male, whole blood | intramuscular, 10 mg/kg of parent compound |  | AUC(0-t) | 0.0949 ± 0.0462 µg·h/mL
COc1ccccc1-c1ccc([C@H]2[C@@H]3CN(C(=O)c4cccnc4)C[C@H]2N3)cc1 | IDE | enzyme activity, inhibitor, fluorogenic kinetic |  | with: Mca-RPPGFSAFK(Dnp)-OH substrate |  | EC50 | 7.1 µM
N[C@@H](C[18F])C(=O)O |  | PET imaging | female athymic nude mice, U-87 MG xenograft | intravenous, 60 min | reference: tumour over muscle | tumour-to-muscle ratio | 1.2 ± 0.27
Nc1ccn([C@@H]2O[C@H](CO)[C@@H](O)C2(F)F)c(=O)n1 |  |  | Sprague-Dawley rat, male, plasma | intravenous, 5 mg/kg |  | Vz/F | 0.27 ± 0.02 (mg/kg)/(µg/mL)
CCc1nn(C)c2nc(-c3ccc(C(=O)O)cc3)nc(NCc3ccc(F)cc3)c12 |  |  | NSG mice | dose not given, day 1 of treatment |  | body weight | 20.4 g and 20.5 g and 19.2 g and 19.3 g
CCn1cc(C(=O)N2CCOCC2)c(=O)c2cc(NC3Cc4ccccc4C3)cnc21 |  |  | human, fed | oral suspension, 300 mg single dose, arithmetic mean |  | AUC(0-last) | 13.5 µg·h/mL
CC[C@H]1[C@@H](O)[C@@H]2[C@H](CC[C@]3(C)[C@@H]([C@H](C)CCNC(=O)NS(=O)(=O)c4ccc(C(C)(C)C)cc4)CC[C@@H]23)[C@@]2(C)CC[C@@H](O)C[C@@H]12 | Cytochrome P450 3A4 (CYP3A4, Homo sapiens, UniProt P08684) |  | human, plasma | 10 mg, day 1, compound alone |  | AUC(0-inf) mean | 0.44 µg·h/mL

Some of these lines once more:
Compound | target or system | assay | system | setting | how to read | quantity | value
CC[C@H](C)CCCCC(=O)N[C@@H](CCN)C(=O)N[C@H](C(=O)N[C@@H](CCN)C(=O)N[C@H]1CCNC(=O)[C@H]([C@@H](C)O)NC(=O)[C@H](CCN)NC(=O)[C@H](CCN)NC(=O)[C@H](CC(C)C)NC(=O)[C@@H](Cc2ccccc2)NC(=O)[C@H](CCN)NC1=O)[C@@H](C)O |  |  | mild renal insufficiency patients | IV, 0.75 mg/kg, arithmetic mean |  | nonrenal clearance | 2.07 L/h
CC(C)(C(=O)N1CCOc2c(C#N)cncc2C1)C(F)F |  | measured: vascular disorders | healthy humans, both sexes | oral, 10 mg single dose |  | subjects with TEAE | 0%
COc1cccc(OC)c1-c1cc(C(=O)NC2(C(=O)O)C3CC4CC(C3)CC2C4)nn1-c1ccc(C(=O)N(C)CCCN(C)CCCN(C)C(=O)CN2CCN(CC(=O)[O-])CCN(CC(=O)[O-])CCN(CC(=O)[O-])CC2)cc1C(C)C.[177Lu+3] (stereo not drawn) |  |  | mouse, HT-29 xenograft, HT-29 tumour | 24 h post injection |  | tissue uptake | 14 %ID/g
N[C@@H](CC(=O)O)C(=O)OC(C(=O)O)c1ccccc1[N+](=O)[O-].O=C(O)C(F)(F)F (mixture of isomers) |  | 1H NMR, dark | 50 mM sodium phosphate | concentration not given, pH 5.8, room temperature, 12.5% DMSO-d6 |  | hydrolysis half-life, A isomer | 13 ± 1 h
Cc1nc(-c2cnc(NC(C)C)n(C)c2=O)ccc1Oc1ccnc(-c2cnn(C)c2)c1 |  |  | DBA/1 mouse, female, plasma | oral, 7.5 mg/kg, single dose |  | apparent volume of distribution | 1.88 L/kg
